Measured values of several laboratories.
Parts stem from different laboratories: compare values within a part only.
Sequence of UniProt Q13255 (whole entry, looked up): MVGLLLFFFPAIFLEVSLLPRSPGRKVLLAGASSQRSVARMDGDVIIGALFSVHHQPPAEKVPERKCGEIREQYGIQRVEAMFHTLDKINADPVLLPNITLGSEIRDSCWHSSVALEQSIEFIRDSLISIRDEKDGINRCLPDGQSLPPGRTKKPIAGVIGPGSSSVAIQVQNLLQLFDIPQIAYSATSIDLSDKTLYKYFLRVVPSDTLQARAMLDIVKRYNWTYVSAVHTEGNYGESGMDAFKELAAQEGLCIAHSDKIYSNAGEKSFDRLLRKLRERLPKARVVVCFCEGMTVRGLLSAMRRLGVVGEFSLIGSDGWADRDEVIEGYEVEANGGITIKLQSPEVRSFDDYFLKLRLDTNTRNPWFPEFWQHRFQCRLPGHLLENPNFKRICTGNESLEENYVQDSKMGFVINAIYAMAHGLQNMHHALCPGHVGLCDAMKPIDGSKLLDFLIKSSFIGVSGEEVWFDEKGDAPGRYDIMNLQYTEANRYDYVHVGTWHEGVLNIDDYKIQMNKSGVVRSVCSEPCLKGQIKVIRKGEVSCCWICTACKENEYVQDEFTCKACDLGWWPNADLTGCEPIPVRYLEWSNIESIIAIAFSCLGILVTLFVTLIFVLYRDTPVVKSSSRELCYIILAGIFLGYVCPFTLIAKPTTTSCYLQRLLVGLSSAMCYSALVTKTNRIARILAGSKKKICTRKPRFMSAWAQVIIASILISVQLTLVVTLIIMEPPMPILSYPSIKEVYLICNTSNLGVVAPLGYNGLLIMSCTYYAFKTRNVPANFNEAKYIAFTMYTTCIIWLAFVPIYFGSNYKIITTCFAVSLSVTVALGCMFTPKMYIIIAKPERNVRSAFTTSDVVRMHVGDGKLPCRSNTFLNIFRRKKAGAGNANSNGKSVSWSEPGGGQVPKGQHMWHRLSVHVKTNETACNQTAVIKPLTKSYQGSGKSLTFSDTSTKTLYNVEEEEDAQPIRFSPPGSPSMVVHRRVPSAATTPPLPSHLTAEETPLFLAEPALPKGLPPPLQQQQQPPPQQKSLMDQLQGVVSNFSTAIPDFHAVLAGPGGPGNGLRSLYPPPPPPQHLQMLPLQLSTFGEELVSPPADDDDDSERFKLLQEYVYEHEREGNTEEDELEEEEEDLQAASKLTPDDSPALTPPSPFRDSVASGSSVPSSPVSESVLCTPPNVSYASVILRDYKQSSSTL
Sequence of UniProt Q9UHD2 (whole entry, looked up): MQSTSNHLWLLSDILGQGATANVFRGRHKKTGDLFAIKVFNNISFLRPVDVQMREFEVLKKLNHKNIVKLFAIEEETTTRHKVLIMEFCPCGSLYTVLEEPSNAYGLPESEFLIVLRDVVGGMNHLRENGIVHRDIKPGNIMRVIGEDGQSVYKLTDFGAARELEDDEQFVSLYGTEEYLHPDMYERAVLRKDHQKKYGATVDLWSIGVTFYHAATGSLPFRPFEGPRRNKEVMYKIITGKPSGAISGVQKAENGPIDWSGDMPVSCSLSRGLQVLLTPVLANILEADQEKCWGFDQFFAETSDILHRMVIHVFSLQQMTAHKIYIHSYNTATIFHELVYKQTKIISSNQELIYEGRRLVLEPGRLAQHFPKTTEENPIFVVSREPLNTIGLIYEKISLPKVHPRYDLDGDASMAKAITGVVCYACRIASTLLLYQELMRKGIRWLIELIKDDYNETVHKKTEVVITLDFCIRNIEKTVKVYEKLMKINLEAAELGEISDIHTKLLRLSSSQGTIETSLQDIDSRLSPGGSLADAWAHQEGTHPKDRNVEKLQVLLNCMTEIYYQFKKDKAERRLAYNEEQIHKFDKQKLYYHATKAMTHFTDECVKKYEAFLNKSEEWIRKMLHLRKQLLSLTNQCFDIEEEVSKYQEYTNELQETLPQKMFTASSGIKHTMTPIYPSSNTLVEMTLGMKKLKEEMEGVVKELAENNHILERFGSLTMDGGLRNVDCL
Sequence of UniProt P25929 (whole entry, looked up): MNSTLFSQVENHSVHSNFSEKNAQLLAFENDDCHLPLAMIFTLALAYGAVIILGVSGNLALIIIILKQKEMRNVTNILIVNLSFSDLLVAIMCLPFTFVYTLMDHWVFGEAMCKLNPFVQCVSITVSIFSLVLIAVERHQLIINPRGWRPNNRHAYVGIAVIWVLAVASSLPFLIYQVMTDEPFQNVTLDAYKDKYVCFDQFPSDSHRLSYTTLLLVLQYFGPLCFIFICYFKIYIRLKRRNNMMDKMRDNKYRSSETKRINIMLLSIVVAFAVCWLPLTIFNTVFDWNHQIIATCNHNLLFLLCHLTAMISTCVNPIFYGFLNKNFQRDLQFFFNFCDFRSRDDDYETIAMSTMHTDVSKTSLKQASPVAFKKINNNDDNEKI
Sequence of UniProt P42336 (whole entry, unmodified, looked up): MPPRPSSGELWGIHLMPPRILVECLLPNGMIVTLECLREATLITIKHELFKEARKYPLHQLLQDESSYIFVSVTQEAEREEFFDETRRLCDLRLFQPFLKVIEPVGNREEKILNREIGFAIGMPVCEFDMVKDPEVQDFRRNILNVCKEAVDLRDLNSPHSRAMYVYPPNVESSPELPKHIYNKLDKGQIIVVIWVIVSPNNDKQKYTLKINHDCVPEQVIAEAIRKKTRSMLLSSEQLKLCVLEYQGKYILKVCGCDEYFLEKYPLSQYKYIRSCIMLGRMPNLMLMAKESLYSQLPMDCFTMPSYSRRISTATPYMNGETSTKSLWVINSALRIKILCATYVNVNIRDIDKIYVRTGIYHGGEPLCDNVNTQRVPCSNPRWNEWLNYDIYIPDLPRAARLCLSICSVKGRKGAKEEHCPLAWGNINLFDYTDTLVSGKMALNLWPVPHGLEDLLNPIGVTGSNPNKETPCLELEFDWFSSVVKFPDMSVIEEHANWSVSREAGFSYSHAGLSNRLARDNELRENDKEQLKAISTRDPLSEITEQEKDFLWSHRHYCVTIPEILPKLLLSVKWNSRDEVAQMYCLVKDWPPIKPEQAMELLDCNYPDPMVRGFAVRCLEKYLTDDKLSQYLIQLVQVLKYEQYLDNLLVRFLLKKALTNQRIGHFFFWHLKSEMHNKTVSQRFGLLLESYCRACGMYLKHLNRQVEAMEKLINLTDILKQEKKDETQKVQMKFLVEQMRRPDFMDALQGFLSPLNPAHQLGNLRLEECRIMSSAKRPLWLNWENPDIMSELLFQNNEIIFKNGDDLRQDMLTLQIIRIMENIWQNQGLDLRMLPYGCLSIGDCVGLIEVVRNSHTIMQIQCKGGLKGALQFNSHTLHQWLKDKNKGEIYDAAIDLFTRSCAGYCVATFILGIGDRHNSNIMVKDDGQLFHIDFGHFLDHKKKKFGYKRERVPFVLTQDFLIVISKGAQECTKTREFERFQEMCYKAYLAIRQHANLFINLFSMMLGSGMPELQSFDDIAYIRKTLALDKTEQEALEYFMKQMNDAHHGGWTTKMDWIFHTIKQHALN
Sequence of UniProt O00270 (whole entry, looked up): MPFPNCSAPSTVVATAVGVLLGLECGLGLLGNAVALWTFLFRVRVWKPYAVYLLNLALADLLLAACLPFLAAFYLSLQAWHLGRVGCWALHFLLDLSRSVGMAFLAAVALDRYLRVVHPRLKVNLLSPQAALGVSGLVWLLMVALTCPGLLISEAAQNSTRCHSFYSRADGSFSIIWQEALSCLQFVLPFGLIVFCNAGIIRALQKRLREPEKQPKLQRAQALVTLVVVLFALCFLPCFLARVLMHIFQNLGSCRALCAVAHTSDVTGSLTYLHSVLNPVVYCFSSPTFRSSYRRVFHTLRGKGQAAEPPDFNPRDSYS

Set 1 — Compound: CCN(c1nc(N)c(C(=O)N=C(N)N)nc1Cl)C(C)C; observed: β-arrestin recruitment; mode: agonist; technique: PRESTO-Tango; concentration: 10 µM; relative to: untreated; measurement: fold over basal
GRM1 (Homo sapiens, UniProt Q13255): 0.99 fold
12-(S)-hydroxy-5,8,10,14-eicosatetraenoic acid receptor (GPR31, Homo sapiens, UniProt O00270): 0.99
BRS3 (Homo sapiens, UniProt P32247): 3.36
G-protein coupled receptor 62 (GPR62, Homo sapiens, UniProt Q9BZJ7): 1.19
GNRHR (Homo sapiens, UniProt P30968): 1.08 fold
NPY1R (Homo sapiens, UniProt P25929): 0.85
OPRD1 (Homo sapiens, UniProt P41143): 5.82
Calcitonin receptor, isoform b (CALCR, Homo sapiens, UniProt P30988): 1.65
GPRC5C (Homo sapiens, UniProt Q9NQ84): 0.52
NTSR1 (Homo sapiens, UniProt P30989): 1.03
Adhesion G protein-coupled receptor F5 (ADGRF5, Homo sapiens, UniProt Q8IZF2): 0.87
HTR1B (Homo sapiens, UniProt P28222): 0.88

Set 2 — observed: enzyme activity; mode: inhibitor; concentration: 0.5 µM; relative to: control; measurement: remaining activity
Target: Homeodomain-interacting protein kinase 3 (HIPK3, Homo sapiens, UniProt Q9H422)
Sequence of UniProt Q9H422 (whole entry, looked up): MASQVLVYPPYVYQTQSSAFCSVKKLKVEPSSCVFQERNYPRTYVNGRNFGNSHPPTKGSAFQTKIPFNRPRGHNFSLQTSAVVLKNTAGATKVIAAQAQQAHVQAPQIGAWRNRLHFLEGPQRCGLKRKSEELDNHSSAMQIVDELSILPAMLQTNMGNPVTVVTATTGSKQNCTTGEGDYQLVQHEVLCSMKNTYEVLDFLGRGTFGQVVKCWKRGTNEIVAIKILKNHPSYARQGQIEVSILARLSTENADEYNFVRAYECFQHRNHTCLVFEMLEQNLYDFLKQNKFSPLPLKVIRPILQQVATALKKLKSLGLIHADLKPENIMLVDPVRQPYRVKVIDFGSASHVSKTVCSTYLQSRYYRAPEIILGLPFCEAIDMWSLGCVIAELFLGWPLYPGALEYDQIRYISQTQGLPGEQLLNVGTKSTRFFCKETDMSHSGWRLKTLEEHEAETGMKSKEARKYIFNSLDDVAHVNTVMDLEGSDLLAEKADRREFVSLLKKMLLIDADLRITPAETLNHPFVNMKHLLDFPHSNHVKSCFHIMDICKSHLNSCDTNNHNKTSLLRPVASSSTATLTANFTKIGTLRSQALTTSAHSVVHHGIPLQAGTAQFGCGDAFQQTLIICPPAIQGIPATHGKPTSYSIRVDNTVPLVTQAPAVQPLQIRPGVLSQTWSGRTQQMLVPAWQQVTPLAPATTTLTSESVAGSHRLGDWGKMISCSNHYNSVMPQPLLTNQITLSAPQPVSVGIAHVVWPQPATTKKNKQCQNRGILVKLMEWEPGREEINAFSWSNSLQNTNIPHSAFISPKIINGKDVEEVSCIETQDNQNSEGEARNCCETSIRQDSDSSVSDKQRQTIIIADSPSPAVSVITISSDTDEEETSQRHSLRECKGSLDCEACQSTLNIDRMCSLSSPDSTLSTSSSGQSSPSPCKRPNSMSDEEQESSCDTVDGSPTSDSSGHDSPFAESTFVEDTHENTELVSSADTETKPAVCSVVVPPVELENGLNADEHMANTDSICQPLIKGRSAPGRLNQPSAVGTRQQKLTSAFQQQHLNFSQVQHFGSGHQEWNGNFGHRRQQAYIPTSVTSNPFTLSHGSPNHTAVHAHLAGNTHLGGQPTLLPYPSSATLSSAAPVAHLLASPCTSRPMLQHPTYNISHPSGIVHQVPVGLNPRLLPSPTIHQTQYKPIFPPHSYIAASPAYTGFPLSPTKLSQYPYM
O=C1c2ccccc2-c2nc3nnnn3nc21: 101%
c1ccc2c(-c3ccncc3)c[nH]c2c1: 107%
COc1ccc2c(c1)c(C1=C(c3c[nH]c4ccccc34)C(=O)NC1=O)cn2CCCN(C)C: 74.1%
COc1cc2c(Nc3ccc(Br)cc3F)ncnc2cc1OCC1CCN(C)CC1: 99.5%
Clc1ccc(Nc2nnc(Cc3ccncc3)c3ccccc23)cc1: 96.5%
CC(C)N(CCC(=O)c1ccc2ccccc2c1)Cc1ccccc1: 115%
CN1CCN(c2ccc3nc(-c4c(N)c5c(F)cccc5[nH]c4=O)[nH]c3c2)CC1: 95.6%
COc1ccc(COc2ccc(Cc3cnc(N)nc3N)cc2OC)cc1: 102%
N#CC(c1ccnc(NCCc2cccnc2)n1)c1nc2ccccc2s1 (stereo not drawn): 106%
N#C/C(=C(/N)SC1C=CC=CC1)c1cccc(C(O)c2ccncc2)c1 (stereo not drawn): 122%
Cc1ccc(S(=O)(=O)/C=C/C#N)cc1: 100%
FC(F)(F)c1ccc(/C=C/c2nc(COc3ccc(CCCCn4ccnn4)cc3)co2)cc1: 100%
O=C1NC(=O)c2c1c1c3ccccc3[nH]c1c1[nH]c3cc(Br)ccc3c21: 93.3%
C[C@@H](N)[C@H]1CC[C@H](C(=O)Nc2ccncc2)CC1: 79.1%
O=C1Nc2ccccc2/C1=C\c1c(Cl)[nH]c2ccccc12: 100%
CCN(CC)CCCCN1c2ccccc2Oc2ccc(Cl)cc21: 94.2%
CCCCc1c(-c2ccc(OC)cc2)[nH]c2nccnc12: 99.9%
O=C(c1ccccc1)c1ccc(N2CCOCC2)cc1O: 98.1%
Nc1nc(Nc2ccc(S(N)(=O)=O)cc2)nn1C(=S)Nc1c(F)cccc1F: 78.2%
O=Nc1c(-c2c(O)[nH]c3ccccc23)[nH]c2ccccc12: 89.2%
N#Cc1cnc2cnc(NCc3cccnc3)cc2c1Nc1ccc(F)c(Cl)c1: 96.5%
O=Nc1c(-c2c(O)[nH]c3cc(Br)ccc23)[nH]c2ccccc12: 64.8%
CN(C)S(=O)(=O)c1ccc2c(c1)/C(=C/c1cc3c([nH]1)CCCC3)C(=O)N2: 107%
NC(=O)c1cccc(-c2cc(Nc3ccc(OC(F)(F)F)cc3)ncn2)c1: 104%
Cc1cc(Nc2cc(N3CCN(C)CC3)nc(Sc3ccc(NC(=O)C4CC4)cc3)n2)[nH]n1: 99.1%

Set 3 — measurement: patients with adverse event
Structure (SMILES): CC(C)n1cnc(-c2ccc(F)cc2)c1-c1ncc(C(=O)Nc2ccc(N3CCN(C)CC3)cc2)[nH]1
item: prostatic calcification, maximum grade 2; idiopathic pulmonary fibrosis patients; dose not given, all compound arms pooled: 0%
Phase 2a trial, item: blood glucose increased; human, idiopathic pulmonary fibrosis; all compound arms total, grade 3: 0%
item: abnormal liver function test, grade 2; idiopathic pulmonary fibrosis patients; dose not given, all compound arms pooled: 0%
Phase 2a trial, item: blood lactate dehydrogenase increased; human, idiopathic pulmonary fibrosis; 60 mg once daily, grade 4: 0%
Phase 2a trial, item: hepatic steatosis; human, idiopathic pulmonary fibrosis; 60 mg once daily, grade 2: 0%
Phase 2a trial, item: blood urea increased; human, idiopathic pulmonary fibrosis; 30 mg once daily, grade 4: 0%
Phase 2a trial, item: hepatobiliary disorders; human, idiopathic pulmonary fibrosis; 30 mg once daily, grade 4: 0%
Phase 2a trial, item: respiratory, thoracic, mediastinal disorders; human, idiopathic pulmonary fibrosis; 30 mg once daily, grade 4: 0%
Phase 2a trial, item: blood urea increased; human, idiopathic pulmonary fibrosis; 30 mg once daily, grade 1: 0%
Phase 2a trial, item: blood creatinine increased; human, idiopathic pulmonary fibrosis; 30 mg once daily, grade 3: 0%

Set 4 — technique: competition with immobilised ligand; measurement: remaining binding
Compound: CS(=O)(=O)N1CCCC(NC(=O)[C@H](CCC2CCCCC2)NC(=O)c2ccc(CNc3ncnc4c3nnn4-c3ccccc3)cc2)C1 (stereo partly drawn)
PAK3 (Homo sapiens, UniProt O75914); cell-free assay; 0.1 µM: 100%
EGFR (Homo sapiens, UniProt P00533, A750P/del747-749); cell-free assay; 0.1 µM: 93%
NEK6 (Homo sapiens, UniProt Q9HC98); cell-free assay; 0.1 µM: 86%
RIOK1 (Homo sapiens, UniProt Q9BRS2); cell-free assay; 0.1 µM: 54%
MAP3K12 (Homo sapiens, UniProt Q12852); cell-free assay; 0.1 µM: 100%
TBK1 (Homo sapiens, UniProt Q9UHD2); cell-free assay; 0.1 µM: 88%
MAPK4 (Homo sapiens, UniProt P31152); cell-free assay; 0.1 µM: 96%
PIK3CA (Homo sapiens, UniProt P42336, I800L); binding; 1 µM: 44%
MAP3K6 (Homo sapiens, UniProt O95382); cell-free assay; 0.1 µM: 100%
RIOK3 (Homo sapiens, UniProt O14730); cell-free assay; 0.1 µM: 88%
ULK3 (Homo sapiens, UniProt Q6PHR2); cell-free assay; 0.1 µM: 99%
PKMYT1 (Homo sapiens, UniProt Q99640); cell-free assay; 0.1 µM: 74%
EGFR (Homo sapiens, UniProt P00533, L861Q); cell-free assay; 0.1 µM: 100%
